# Measured values gathered from unrelated publications.
# ± marks the error that the study gave.
Compound,assay,test system,conditions,endpoint,value
CC(C)C[C@H](NC(=O)[C@H](CCCCN)NC(=O)[C@H](C)NC(=O)[C@@H]1CCCN1C(=O)[C@@H]1CCCN1C(=O)[C@H](CCCCN)NC(=O)[C@H](CCCCN)NC(=O)[C@H](CO)NC(=O)[C@H](CCC(=O)O)NC(=O)[C@H](CCCCN)NC(=O)[C@H](CCCNC(=N)N)NC(=O)[C@H](CCC(N)=O)NC(=O)[C@H](CCC(N)=O)NC(=O)[C@@H](NC(=O)[C@H](CCCNC(=N)N)NC(=O)[C@H](CCC(N)=O)NC(=O)[C@H](Cc1cnc[nH]1)NC(=O)[C@H](CCC(=O)O)NC(=O)[C@@H]1CCCN1C(=O)[C@H](CO)NC(=O)[C@H](CC(C)C)NC(=O)[C@H](Cc1ccccc1)NC(=O)[C@H](CO)NC(=O)[C@H](CO)NC(=O)CN)C(C)C)C(=O)N[C@@H](CCC(N)=O)C(=O)N1CCC[C@H]1C(=O)N[C@@H](CCCNC(=N)N)C(=O)O,ELISA,"healthy humans, both sexes, plasma","intravenous bolus then infusion, 1.1 µg/kg bolus then 4 µg/kg/h, 210 min",Tmax,2.83 ± 0.817 h
CC1(C)C(=O)N(c2ccc(C#N)c(C(F)(F)F)c2)C(=S)N1c1ccc(C(=O)O)c(F)c1,,"human, male, plasma","oral, 160 mg, single dose, after high-fat meal",Tmax (median),48 h
CSCC[C@H](NC(=O)[C@H](CO)NC(=O)[C@H](Cc1ccc(O)cc1)NC(=O)[C@@H](N)CO)C(=O)N[C@@H](CCC(=O)O)C(=O)N[C@@H](Cc1c[nH]cn1)C(=O)N[C@@H](Cc1ccccc1)C(=O)N[C@@H](CCCNC(=N)N)C(=O)N[C@@H](Cc1c[nH]c2ccccc12)C(=O)NCC(=O)N[C@@H](CCCCN)C(=O)N1CCC[C@H]1C(=O)N[C@H](C(=O)NCC(=O)N[C@@H](CCCCN)C(=O)N[C@@H](CCCCN)C(=O)N[C@@H](CCCNC(=N)N)C(=O)N[C@@H](CCCNC(=N)N)C(=O)N1CCC[C@H]1C(=O)N[C@H](C(=O)N[C@@H](CCCCN)C(=O)N[C@H](C(=O)N[C@@H](Cc1ccc(O)cc1)C(=O)N1CCC[C@H]1C(=O)N[C@@H](CC(=O)O)C(=O)NCC(=O)N[C@@H](C)C(=O)N[C@@H](CCC(=O)O)C(=O)N[C@@H](CC(=O)O)C(=O)N[C@@H](CCC(=O)O)C(=O)N[C@@H](CC(C)C)C(=O)N[C@@H](C)C(=O)N[C@@H](CCC(=O)O)C(=O)N[C@@H](C)C(=O)N[C@@H](Cc1ccccc1)C(=O)N1CCC[C@H]1C(=O)N[C@@H](CC(C)C)C(=O)N[C@@H](CCC(=O)O)C(=O)N[C@@H](Cc1ccccc1)C(=O)O)C(C)C)C(C)C)C(C)C,,"human, plasma","subcutaneous, RCI 80 IU, day 4",Tmax,1 h
CC(=CCC(O)C(C)=Cc1csc(C)n1)CC=CC(C)C(O)C(C)C(=O)C(C)(C)C(O)CC(=O)O (centres unmarked),,"human, plasma","intravenous infusion, 27 mg/m2 KOS-1584, 3 h infusion, cycle 1",Tmax,3.65 ± 0.4 h
CCc1c2c(nc3ccc(OC4OC(C(=O)O)C(O)C(O)C4O)cc13)-c1cc3c(c(=O)n1C2)COC(=O)C3(O)CC (centres unmarked),,"human patients, plasma","intravenous, 3 mg/m^2 of parent drug",Tmax,2 h
CC[C@H](C)C(=O)N1CCC(NC(=O)Nc2ccc(OC(F)(F)F)c(F)c2)CC1,,human,"oral, single ascending dose, median",Tmax,1.25 h
CCCCCCCC(=O)OC[C@H](NC(=O)[C@H](CO)NC(=O)CN)C(=O)N[C@@H](Cc1ccccc1)C(=O)N[C@@H](CC(C)C)C(=O)N[C@@H](CO)C(=O)N1CCC[C@H]1C(=O)N[C@@H](CCC(=O)O)C(=O)N[C@@H](Cc1cnc[nH]1)C(=O)N[C@@H](CCC(N)=O)C(=O)N[C@@H](CCCNC(=N)N)C(=O)N[C@H](C(=O)N[C@@H](CCC(N)=O)C(=O)N[C@@H](CCC(N)=O)C(=O)N[C@@H](CCCNC(=N)N)C(=O)N[C@@H](CCCCN)C(=O)N[C@@H](CCC(=O)O)C(=O)N[C@@H](CO)C(=O)N[C@@H](CCCCN)C(=O)N[C@@H](CCCCN)C(=O)N1CCC[C@H]1C(=O)N1CCC[C@H]1C(=O)N[C@@H](C)C(=O)N[C@@H](CCCCN)C(=O)N[C@@H](CC(C)C)C(=O)N[C@@H](CCC(N)=O)C(=O)N1CCC[C@H]1C(=O)N[C@@H](CCCNC(=N)N)C(=O)O)C(C)C,"two-site ELISA, item: DAG","human, plasma","intravenous infusion, 1 µg/kg/h, 210 min",Tmax,1.82 ± 1.23 h
CC(C)C[C@@H](NC(=O)[C@@H](Cc1ccccc1)NC(=O)[C@H](N)Cc1ccccc1)C(=O)N[C@H](CCCCN)C(=O)N1CCC(N)(C(=O)O)CC1,,"human, plasma","intravenous, 5 µg/kg",Tmax,0.1 h

# Repeated from above:
Compound,assay,test system,conditions,endpoint,value
CSCC[C@H](NC(=O)[C@H](CO)NC(=O)[C@H](Cc1ccc(O)cc1)NC(=O)[C@@H](N)CO)C(=O)N[C@@H](CCC(=O)O)C(=O)N[C@@H](Cc1c[nH]cn1)C(=O)N[C@@H](Cc1ccccc1)C(=O)N[C@@H](CCCNC(=N)N)C(=O)N[C@@H](Cc1c[nH]c2ccccc12)C(=O)NCC(=O)N[C@@H](CCCCN)C(=O)N1CCC[C@H]1C(=O)N[C@H](C(=O)NCC(=O)N[C@@H](CCCCN)C(=O)N[C@@H](CCCCN)C(=O)N[C@@H](CCCNC(=N)N)C(=O)N[C@@H](CCCNC(=N)N)C(=O)N1CCC[C@H]1C(=O)N[C@H](C(=O)N[C@@H](CCCCN)C(=O)N[C@H](C(=O)N[C@@H](Cc1ccc(O)cc1)C(=O)N1CCC[C@H]1C(=O)N[C@@H](CC(=O)O)C(=O)NCC(=O)N[C@@H](C)C(=O)N[C@@H](CCC(=O)O)C(=O)N[C@@H](CC(=O)O)C(=O)N[C@@H](CCC(=O)O)C(=O)N[C@@H](CC(C)C)C(=O)N[C@@H](C)C(=O)N[C@@H](CCC(=O)O)C(=O)N[C@@H](C)C(=O)N[C@@H](Cc1ccccc1)C(=O)N1CCC[C@H]1C(=O)N[C@@H](CC(C)C)C(=O)N[C@@H](CCC(=O)O)C(=O)N[C@@H](Cc1ccccc1)C(=O)O)C(C)C)C(C)C)C(C)C,,"human, plasma","subcutaneous, RCI 80 IU, day 4",Tmax,1 h
